Results gathered from unrelated publications.
Compare with care: the assays were run in different laboratories.
PLK4: Serine/threonine-protein kinase PLK4 (PLK4, Homo sapiens, UniProt O00444)
Chain of UniProt O00444 (whole entry, looked up): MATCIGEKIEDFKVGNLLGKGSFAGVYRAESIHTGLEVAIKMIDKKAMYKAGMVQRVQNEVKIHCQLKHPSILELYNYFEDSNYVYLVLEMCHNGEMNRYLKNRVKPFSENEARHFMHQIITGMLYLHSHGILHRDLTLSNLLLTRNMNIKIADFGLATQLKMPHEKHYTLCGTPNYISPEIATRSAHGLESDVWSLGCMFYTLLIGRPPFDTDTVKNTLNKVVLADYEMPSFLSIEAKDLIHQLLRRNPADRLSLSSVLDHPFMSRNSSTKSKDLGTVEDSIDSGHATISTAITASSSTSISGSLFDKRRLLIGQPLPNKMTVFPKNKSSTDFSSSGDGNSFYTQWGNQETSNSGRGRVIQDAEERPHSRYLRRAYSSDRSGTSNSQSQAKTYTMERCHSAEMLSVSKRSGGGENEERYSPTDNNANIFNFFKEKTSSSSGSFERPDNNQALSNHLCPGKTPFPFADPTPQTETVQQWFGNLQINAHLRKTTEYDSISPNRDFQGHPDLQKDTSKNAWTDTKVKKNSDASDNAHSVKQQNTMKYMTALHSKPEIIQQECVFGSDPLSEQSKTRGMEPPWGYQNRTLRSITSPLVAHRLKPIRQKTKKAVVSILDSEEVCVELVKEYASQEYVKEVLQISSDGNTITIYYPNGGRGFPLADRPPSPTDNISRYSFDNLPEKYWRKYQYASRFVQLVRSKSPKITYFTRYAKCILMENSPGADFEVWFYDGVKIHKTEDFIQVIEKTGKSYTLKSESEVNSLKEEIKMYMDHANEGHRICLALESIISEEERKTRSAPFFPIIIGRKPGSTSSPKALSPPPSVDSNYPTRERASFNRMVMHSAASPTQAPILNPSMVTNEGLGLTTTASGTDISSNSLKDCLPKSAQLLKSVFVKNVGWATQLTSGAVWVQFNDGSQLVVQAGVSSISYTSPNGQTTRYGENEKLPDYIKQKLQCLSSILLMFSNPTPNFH
TMPRSS2: Transmembrane protease serine 2 (TMPRSS2, Homo sapiens, UniProt O15393)
Chain of UniProt O15393 (whole entry, looked up): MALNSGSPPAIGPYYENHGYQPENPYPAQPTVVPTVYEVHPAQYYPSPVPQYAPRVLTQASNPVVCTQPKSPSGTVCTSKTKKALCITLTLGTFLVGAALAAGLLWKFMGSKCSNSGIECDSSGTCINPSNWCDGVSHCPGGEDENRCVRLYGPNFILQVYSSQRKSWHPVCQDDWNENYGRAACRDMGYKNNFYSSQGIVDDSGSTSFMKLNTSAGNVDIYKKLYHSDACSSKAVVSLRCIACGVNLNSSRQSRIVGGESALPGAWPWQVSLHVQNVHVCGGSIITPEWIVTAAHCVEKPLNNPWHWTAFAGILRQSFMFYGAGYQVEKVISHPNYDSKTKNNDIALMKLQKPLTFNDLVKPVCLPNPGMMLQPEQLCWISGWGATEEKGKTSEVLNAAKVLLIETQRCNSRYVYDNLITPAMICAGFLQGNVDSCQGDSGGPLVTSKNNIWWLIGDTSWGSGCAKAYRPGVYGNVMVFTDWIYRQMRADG
PFF0160c E182D: Dihydroorotate dehydrogenase (quinone), mitochondrial (PFF0160c, Plasmodium falciparum, UniProt Q08210, E182D)
CNR1: Cannabinoid receptor 1 (CNR1, Homo sapiens, UniProt P21554)
Chain of UniProt P21554 (whole entry, looked up): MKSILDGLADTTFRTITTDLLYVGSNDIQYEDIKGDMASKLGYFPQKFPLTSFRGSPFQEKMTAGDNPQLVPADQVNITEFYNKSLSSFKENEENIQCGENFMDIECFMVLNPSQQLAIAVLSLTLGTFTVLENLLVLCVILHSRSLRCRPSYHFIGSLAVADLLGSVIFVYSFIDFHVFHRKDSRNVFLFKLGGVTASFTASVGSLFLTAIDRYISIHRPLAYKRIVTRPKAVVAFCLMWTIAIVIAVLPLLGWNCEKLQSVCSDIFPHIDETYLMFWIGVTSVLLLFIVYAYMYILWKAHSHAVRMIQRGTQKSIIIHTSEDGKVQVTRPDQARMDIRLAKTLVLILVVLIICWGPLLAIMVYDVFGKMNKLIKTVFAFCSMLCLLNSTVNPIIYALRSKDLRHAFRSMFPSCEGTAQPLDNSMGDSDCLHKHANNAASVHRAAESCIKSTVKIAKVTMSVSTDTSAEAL
Chain of UniProt Q8NI60 (whole entry, looked up): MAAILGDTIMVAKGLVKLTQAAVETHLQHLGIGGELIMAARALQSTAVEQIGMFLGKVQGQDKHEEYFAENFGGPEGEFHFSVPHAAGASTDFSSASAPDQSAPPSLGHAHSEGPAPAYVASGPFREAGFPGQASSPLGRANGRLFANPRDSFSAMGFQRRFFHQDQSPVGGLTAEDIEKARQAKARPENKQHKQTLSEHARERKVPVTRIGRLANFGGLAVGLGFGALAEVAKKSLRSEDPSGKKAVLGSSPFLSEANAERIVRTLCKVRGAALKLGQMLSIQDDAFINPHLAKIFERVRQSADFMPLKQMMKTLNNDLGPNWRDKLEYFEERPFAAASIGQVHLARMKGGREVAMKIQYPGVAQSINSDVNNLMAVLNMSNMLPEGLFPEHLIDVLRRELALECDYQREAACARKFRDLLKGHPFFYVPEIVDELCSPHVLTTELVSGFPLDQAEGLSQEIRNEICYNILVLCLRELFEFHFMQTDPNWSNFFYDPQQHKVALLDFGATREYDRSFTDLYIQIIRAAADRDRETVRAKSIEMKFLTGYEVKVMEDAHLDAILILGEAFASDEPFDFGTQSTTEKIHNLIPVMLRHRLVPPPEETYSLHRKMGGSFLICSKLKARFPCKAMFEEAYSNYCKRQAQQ
Chain of UniProt Q13976 (whole entry, looked up): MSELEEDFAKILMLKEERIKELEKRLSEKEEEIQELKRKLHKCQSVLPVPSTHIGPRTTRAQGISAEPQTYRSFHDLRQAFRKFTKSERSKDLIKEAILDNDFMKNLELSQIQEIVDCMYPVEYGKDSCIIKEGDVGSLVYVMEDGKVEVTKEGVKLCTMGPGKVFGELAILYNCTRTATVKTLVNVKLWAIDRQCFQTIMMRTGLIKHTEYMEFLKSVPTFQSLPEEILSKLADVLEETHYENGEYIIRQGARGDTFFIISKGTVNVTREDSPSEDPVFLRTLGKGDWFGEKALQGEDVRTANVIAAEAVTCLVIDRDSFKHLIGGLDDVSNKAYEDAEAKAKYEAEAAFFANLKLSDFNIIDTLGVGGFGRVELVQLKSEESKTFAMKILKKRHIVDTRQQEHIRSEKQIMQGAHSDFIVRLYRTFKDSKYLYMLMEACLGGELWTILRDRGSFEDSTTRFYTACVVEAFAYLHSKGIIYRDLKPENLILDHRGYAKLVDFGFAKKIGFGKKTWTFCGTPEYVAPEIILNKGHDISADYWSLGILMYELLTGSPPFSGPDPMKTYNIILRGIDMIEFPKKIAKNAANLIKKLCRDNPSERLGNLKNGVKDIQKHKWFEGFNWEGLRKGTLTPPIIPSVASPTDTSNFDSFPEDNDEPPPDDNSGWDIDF
Chain of UniProt P07711 (whole entry, looked up): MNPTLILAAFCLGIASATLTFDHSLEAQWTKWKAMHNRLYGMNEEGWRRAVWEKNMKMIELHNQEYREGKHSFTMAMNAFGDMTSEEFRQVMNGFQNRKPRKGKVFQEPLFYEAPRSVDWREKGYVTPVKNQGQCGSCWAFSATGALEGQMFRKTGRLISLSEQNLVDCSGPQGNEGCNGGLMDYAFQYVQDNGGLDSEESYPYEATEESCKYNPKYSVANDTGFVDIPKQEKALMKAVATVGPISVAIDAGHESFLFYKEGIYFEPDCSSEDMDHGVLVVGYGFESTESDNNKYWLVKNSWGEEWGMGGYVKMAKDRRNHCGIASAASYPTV
Chain of UniProt P41144 (whole entry, looked up): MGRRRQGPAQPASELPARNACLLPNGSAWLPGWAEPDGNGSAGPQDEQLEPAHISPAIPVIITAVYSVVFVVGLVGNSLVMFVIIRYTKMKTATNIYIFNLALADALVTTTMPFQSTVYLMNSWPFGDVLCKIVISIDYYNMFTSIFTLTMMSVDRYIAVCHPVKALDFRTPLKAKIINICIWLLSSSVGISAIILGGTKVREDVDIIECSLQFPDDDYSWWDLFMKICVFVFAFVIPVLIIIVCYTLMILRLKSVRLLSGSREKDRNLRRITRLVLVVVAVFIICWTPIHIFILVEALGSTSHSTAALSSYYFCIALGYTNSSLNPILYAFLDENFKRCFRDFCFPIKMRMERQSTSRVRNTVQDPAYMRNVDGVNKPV
Chain of UniProt O14920 (whole entry, looked up): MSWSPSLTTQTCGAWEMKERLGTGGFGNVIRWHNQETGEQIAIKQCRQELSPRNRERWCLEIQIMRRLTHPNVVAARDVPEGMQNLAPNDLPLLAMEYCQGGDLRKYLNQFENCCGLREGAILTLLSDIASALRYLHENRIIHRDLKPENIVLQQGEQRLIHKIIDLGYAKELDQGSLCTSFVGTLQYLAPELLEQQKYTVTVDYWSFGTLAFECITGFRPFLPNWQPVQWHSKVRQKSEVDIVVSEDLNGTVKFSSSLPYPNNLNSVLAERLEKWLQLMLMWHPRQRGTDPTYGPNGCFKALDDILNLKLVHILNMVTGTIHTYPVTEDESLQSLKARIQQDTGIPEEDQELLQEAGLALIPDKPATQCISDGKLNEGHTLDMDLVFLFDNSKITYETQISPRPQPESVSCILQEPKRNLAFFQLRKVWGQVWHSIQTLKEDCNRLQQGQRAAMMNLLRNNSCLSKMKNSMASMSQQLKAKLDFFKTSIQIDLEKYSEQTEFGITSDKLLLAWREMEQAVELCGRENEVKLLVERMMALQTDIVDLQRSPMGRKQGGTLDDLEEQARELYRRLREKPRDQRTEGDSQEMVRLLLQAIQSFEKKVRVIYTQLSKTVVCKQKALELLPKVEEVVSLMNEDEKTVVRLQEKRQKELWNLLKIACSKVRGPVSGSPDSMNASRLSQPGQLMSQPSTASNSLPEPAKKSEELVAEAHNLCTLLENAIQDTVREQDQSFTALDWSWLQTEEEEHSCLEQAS

SMILES | tested on | test | test system | setting | quantity | value
COc1ncccc1-c1cnn2ccc(N3CCN(C(=O)OC(C)C)CC3)nc12 | PLK4 | binding, competition with immobilised ligand |  | 1 µM | remaining binding | 71%
CC(=O)N[C@@H](CCC(N)=O)C(=O)N[C@@H](Cc1cscn1)C(=O)N[C@@H](CCCNC(=N)N)C(=O)c1nc2ccccc2s1 | TMPRSS2 | enzyme activity, inhibitor |  | 1 nM | activity vs control | 82%
N.N.[Cl][Pt][Cl] | MOLT-4 | cell growth or viability, ATP luminescence |  | 72 h | IC50 | 890 nM
Nc1ncc(-c2nc(N3CCOCC3)nc(N3CCOCC3)n2)c(C(F)F)n1 | COQ8A (Homo sapiens, UniProt Q8NI60) | binding, competition with immobilised ligand |  | 10 µM | remaining binding | 68%
COc1cc(CCNC(C)c2ccccc2O)c(OC)cc1C#N (single isomer, unassigned; (-)) | HTR2C (Homo sapiens, UniProt P28335) | G protein activation, agonist, BRET |  |  | EC50 | 46 nM
c1cncc([C@@H]2CCCN2)c1 | HTR6 (Homo sapiens, UniProt P50406) | ligand displacement |  | 50 µM | inhibition | 5%
COC(=O)c1cc(-c2cccc(NC(=S)Nc3ccc(Cl)cc3)c2)on1 | Pseudomonas aeruginosa | microbial growth, broth dilution | ATCC27853 |  | MIC | > 64 µg/mL
O=c1c(Br)c(C(F)(F)F)[nH]c2ccc(Oc3ccccc3)cc12 | PFF0160c E182D | enzyme activity, inhibitor, absorbance |  |  | IC50 | > 10000 nM
C[C@H](NC(=O)[C@H](CCC(N)=O)NC(=O)[C@@H](N)CCCNC(=N)N)C(=O)N[C@@H](CCCNC(=N)N)C(=O)c1nc2ccccc2s1 | TMPRSS2 | enzyme activity, inhibitor |  | 1 nM | activity vs control | 57%
COC(=O)c1cc(-c2cccc(NC(=S)Nc3cc(C(F)(F)F)cc(C(F)(F)F)c3)c2)on1 | Mycolicibacterium fortuitum | microbial growth, broth dilution | ATCC6841 | 48 h | MIC | > 64 µg/mL
CC[C@@H](C)[C@@H]1CN([C@@H](CC2CCCCC2)CN2CCC[C@H]2CN2CCNC[C@@H]2CO)CCN1CCC12CC3CC(CC(C3)C1)C2 | OPRK1 (Cavia porcellus, UniProt P41144) | ligand displacement, radioligand |  | 0.5 µM, pH 7.5 | remaining binding | 79.2%
N=C(N)NCCC[C@H](NC(=O)[C@H](CCCCN)NC(=O)[C@H](Cc1cscn1)NC(=O)CCc1ccccc1)C(=O)c1nc2ccccc2s1 | TMPRSS2 | enzyme activity, inhibitor |  | 1 nM | activity vs control | 89%
Cc1nn(C)cc1-c1nc2c(N3CCN(Cc4ccc(Cl)cc4)CC3)c(Cl)cnc2[nH]1 | PLK4 | binding, competition with immobilised ligand |  | 1 µM | remaining binding | 84%
CCCCC/C=C\[C@H](C)/C=C\C/C=C\Cc1ccccc1CCCC(=O)N[C@H](C)CO | CNR1 | β-arrestin recruitment, agonist |  |  | Emax | 28%
COc1cnc(OC)n2nc(NS(=O)(=O)c3c(OCC(F)F)cccc3C(F)(F)F)nc12 | L02 | cell growth or viability, CCK-8 |  | 50 µM, 72 h | inhibition | 0.95%
C[C@H](NC(=O)[C@H](CCC(N)=O)NC(=O)C[C@@H](N)CCCNC(=N)N)C(=O)N[C@@H](CCCNC(=N)N)C(=O)c1nc2ccccc2s1 | TMPRSS2 | enzyme activity, inhibitor |  | 1 nM | activity vs control | 94%
C#Cc1n[nH]c2c(-c3cn(C(C)c4ccccn4)c(=O)[nH]c3=O)cc(F)cc12 (centres unmarked) | PRKG1 (Homo sapiens, UniProt Q13976) | enzyme activity, inhibitor |  | 1 µM | inhibition | 8.8%
C=CCCCn1c(O)c(N=NC(=O)c2ccccc2)c2ccccc21 | CNR1 | β-arrestin recruitment, agonist | HEK293 |  | Emax | 77.4%
CC(C)CC(=O)OC[C@H]1O[C@@](C#N)(c2ccc3c(N)ncnn23)[C@H](O)[C@@H]1O | CCKBR (Homo sapiens, UniProt P32239) | cell-free assay |  | 20 µM | inhibition | 10%
[2H]c1c([2H])c([C@]2([2H])CCCN2C(=O)C(C)(C)Oc2ccc3cn[nH]c3c2)c([2H])c([2H])c1C([2H])([2H])[2H] | IKBKB (Homo sapiens, UniProt O14920) | binding, competition with immobilised ligand |  | 1 µM | remaining binding | 83%
O=CC=Cc1ccccc1 | Procathepsin L (CTSL, Homo sapiens, UniProt P07711) | enzyme activity, inhibitor |  | 100 µM | remaining activity | 151%
CC(=O)N[C@@H](CCC(N)=O)C(=O)N[C@@H](Cc1ccccc1)C(=O)NN(CCCNC(=N)N)C(=O)c1nc2ccccc2s1 | TMPRSS2 | enzyme activity, inhibitor |  | 1 nM | activity vs control | 100%
Cc1cc(OC(C)C(=O)N2CCc3ccccc32)ccc1Cl (centres unmarked) | PFF0160c E182D | enzyme activity, inhibitor, absorbance |  |  | IC50 | 62.1 nM

A few entries again:
SMILES | tested on | test | test system | setting | quantity | value
CCCCC/C=C\[C@H](C)/C=C\C/C=C\Cc1ccccc1CCCC(=O)N[C@H](C)CO | CNR1 | β-arrestin recruitment, agonist |  |  | Emax | 28%
COc1cnc(OC)n2nc(NS(=O)(=O)c3c(OCC(F)F)cccc3C(F)(F)F)nc12 | L02 | cell growth or viability, CCK-8 |  | 50 µM, 72 h | inhibition | 0.95%
C[C@H](NC(=O)[C@H](CCC(N)=O)NC(=O)C[C@@H](N)CCCNC(=N)N)C(=O)N[C@@H](CCCNC(=N)N)C(=O)c1nc2ccccc2s1 | TMPRSS2 | enzyme activity, inhibitor |  | 1 nM | activity vs control | 94%
C#Cc1n[nH]c2c(-c3cn(C(C)c4ccccn4)c(=O)[nH]c3=O)cc(F)cc12 (centres unmarked) | PRKG1 (Homo sapiens, UniProt Q13976) | enzyme activity, inhibitor |  | 1 µM | inhibition | 8.8%
